{"data": "Measurements gathered from unrelated publications", "note": "Lines come from different studies, so protocols differ. Values joined by “and” are separate records of one study, mostly repeats; a detail may differ. ± marks the error that the study gave."}
{"Compound": "CCOC(=O)C1=C(C)NC2=C(C(=O)CC(c3ccc(OC)c(OC)c3)C2)C1c1ccc(Cl)cc1C (stereo not drawn)", "cell line": "J774.A1", "test": "cytotoxicity", "EC50": "> 20 µM"}
{"Compound": "CCn1cc(-c2cc(Cn3ccnc3)cc3c2CCN([C@H](c2cc(OC)ccn2)C2CC2)C3=O)c(C(F)(F)F)n1", "cell line": "NCI-H1650", "test": "cell growth, inhibitor", "conditions": "120 h", "EC50": "> 30 µM"}
{"Compound": "O=C(Nc1cncc(-c2nc3ccccc3s2)c1)c1cc([N+](=O)[O-])c(N2CCNCC2)cc1Cl", "cell line": "J774.A1", "test": "cytotoxicity", "EC50": "2.2 ± 0.7 µM"}
{"Compound": "Cc1nn(-c2nc3c(F)cc(F)cc3s2)c(O)c1C(c1ccccc1C(F)(F)F)c1c(C)nn(-c2nc3c(F)cc(F)cc3s2)c1O", "cell line": "THP1-Dual", "test": "IFNB1 luciferase reporter, inhibitor", "conditions": "together with: HT-DNA", "EC50": "18.4 ± 0.3 µM"}
{"Compound": "O=C(Nc1cncc(-c2nc3ccccc3o2)c1)c1cc([N+](=O)[O-])c(F)cc1F", "cell line": "J774.A1", "test": "cytotoxicity", "EC50": "1.7 µM"}
{"Compound": "CCOC(=O)C1=C(C)NC2=C(C(=O)OC(c3ccc(OC)c(OC)c3)C2)C1c1cccc(OC)c1 (stereo not drawn)", "cell line": "J774.A1", "test": "cytotoxicity", "EC50": "> 20 µM"}
{"Compound": "Cc1cc(OCc2nnc(SC3CCCC3)n2-c2cccnc2)ccc1-c1ccc(S(C)(=O)=O)cc1", "cell line": "BRD4-HiBiT cells", "test": "BRD4 degradation rescue, inhibitor", "conditions": "8 h, 50% degradation rescued, together with: dBET6 500 nM", "EC50": "20.7 µM"}
{"Compound": "O=c1c(O)c(-c2ccc(O)c(O)c2)oc2cc(O)cc(O)c12", "cell line": "HepG2-ARE-Luc", "test": "Nrf2-ARE reporter gene, activator", "EC50": "9.3 µM"}
{"Compound": "COc1cnc2cccc(N3CCc4c(cc(Cn5ccnc5C)cc4-c4cn(C)nc4C(F)(F)F)C3=O)c2c1", "cell line": "HLC1", "test": "cell growth, inhibitor", "conditions": "120 h", "EC50": "6.87 µM"}
{"Compound": "Nc1cccc2c1CN(C1CCC(=O)NC1=O)C2=O (stereo not drawn)", "cell line": "BRD4-HiBiT cells", "test": "BRD4 degradation rescue, inhibitor", "conditions": "4 h, together with: dBET6 500 nM", "EC50": "7.29 µM"}
{"Compound": "Cc1ccc(-c2nc3ccccc3o2)cc1NC(=O)c1cc([N+](=O)[O-])c(N2CCNCC2)cc1Cl", "cell line": "J774.A1", "test": "cytotoxicity", "EC50": "0.6 µM"}
{"Compound": "NS(=O)(=O)OC[C@H]1C[C@@H](Nc2ccnc3cc(-c4cccc(SC(F)(F)F)c4)nn23)[C@H](O)[C@@H]1O", "cell line": "BRD4-HiBiT cells", "test": "BRD4 degradation rescue, inhibitor", "conditions": "24 h, together with: dBET6 500 nM", "EC50": "0.0504 µM"}
{"Compound": "CCCOC(=O)C1=C(C)NC2=C(C(=O)OC(c3ccc(OC)c(OC)c3)C2)C1c1ccccc1Cl (mixture of isomers)", "cell line": "J774.A1", "test": "cytotoxicity", "EC50": "> 20 µM"}
{"Compound": "O=C(NN=Cc1ccc([N+](=O)[O-])s1)C1CC(=O)N(c2ccc(F)cc2F)C1 (stereo not drawn)", "cell line": "PPC-1", "test": "cell viability, MTT", "conditions": "72 h", "EC50": "13.1 ± 3.4 µM"}
{"Compound": "CC(C)C[C@H](NC(=O)CNC(=O)c1cc(Cl)ccc1Cl)B(O)O", "cell line": "BRD4-HiBiT cells", "test": "BRD4 degradation rescue, inhibitor", "conditions": "2 h, 50% degradation rescued, together with: dBET6 500 nM", "EC50": "0.238 µM"}
{"Compound": "Cc1ccc(-c2nc3ccccc3o2)cc1NC(=O)c1cc([N+](=O)[O-])c(F)cc1Cl", "cell line": "J774.A1", "test": "cytotoxicity", "EC50": "4.3 µM"}
{"Compound": "CCOC(=O)C1=C(C)NC2=C(C(=O)OC(c3ccc(OC)c(OC)c3)C2)C1c1ccc(C)cc1 (stereo not drawn)", "cell line": "J774.A1", "test": "cytotoxicity", "EC50": "> 20 µM"}
{"Compound": "O=C(Nc1cncc(-c2nc3ccccc3s2)c1)c1cc([N+](=O)[O-])c(F)cc1Cl", "cell line": "J774.A1", "test": "cytotoxicity", "EC50": "1.3 µM"}
{"Compound": "NS(=O)(=O)OC[C@@H]1C[C@@H](n2ccc3c(N[C@H]4CCc5ccccc54)ncnc32)C[C@@H]1O", "cell line": "BRD4-HiBiT cells", "test": "BRD4 degradation rescue, inhibitor", "conditions": "4 h, together with: dBET6 500 nM", "EC50": "0.108 µM"}
{"Compound": "CCN(CC)CCNC(=O)c1c(C)[nH]c(/C=C2\\C(=O)Nc3ccc(F)cc32)c1C", "cell line": "PPC-1", "test": "cell viability, MTT", "conditions": "72 h", "EC50": "1.45 ± 0.07 µM"}
{"Compound": "CCOC(=O)C1=C(C)NC2=C(C(=O)OC(c3ccc(OC)c(OC)c3)C2)C1c1ccc(-c2ccccc2)cc1 (stereo not drawn)", "cell line": "J774.A1", "test": "cytotoxicity", "EC50": "> 20 µM"}
{"Compound": "N#Cc1ccc(N2CCN(Cc3ccc(COc4cccc5c4CN([C@H]4CCC(=O)NC4=O)C5=O)cc3)CC2)c(F)c1", "cell line": "BRD4-HiBiT cells", "test": "BRD4 degradation rescue, inhibitor", "conditions": "6 h, together with: dBET6", "EC50": "0.026 µM"}
{"Compound": "CCn1cc(-c2cc(Cn3ccoc3=N)cc3c2CCN([C@@H](C)c2cc(OC)ccn2)C3=O)c(C(F)(F)F)n1", "cell line": "SW837", "test": "cell growth, inhibitor", "conditions": "120 h", "EC50": "3.05 µM"}
{"Compound": "COC[C@H](NC(=O)c1cnc(C)s1)C(=O)N[C@@H](COC)C(=O)N[C@@H](Cc1ccccc1)C(=O)[C@@]1(C)CO1", "cell line": "BRD4-HiBiT cells", "test": "BRD4 degradation rescue, inhibitor", "conditions": "4 h, 50% degradation rescued, together with: dBET6 500 nM", "EC50": "9.38 µM"}
{"Compound": "CCOC(=O)C1=C(C)NC2=C(C(=O)OC(c3cccc(Cl)c3)C2)C1c1ccccc1Cl (stereo not drawn)", "cell line": "J774.A1", "test": "cytotoxicity", "EC50": "> 20 µM"}
{"Compound": "CC(C)C[C@H](NC(=O)[C@H](Cc1ccccc1)NC(=O)c1cnccn1)B(O)O", "cell line": "BRD4-HiBiT cells", "test": "BRD4 degradation rescue, inhibitor", "conditions": "4 h, 50% degradation rescued, together with: dBET6 500 nM", "EC50": "0.121 µM"}
{"Compound": "CCOC(=O)C1=C(C)NC2=C(C(=O)OC(c3ccc(OC)c(OC)c3)C2)C1c1ccc(OC)cc1 (stereo not drawn)", "cell line": "J774.A1", "test": "cytotoxicity", "EC50": "> 20 µM"}
{"Compound": "Cc1nn(-c2nc3ccccc3s2)c(O)c1C(c1ccccc1C(=O)O)c1c(C)nn(-c2nc3ccccc3s2)c1O", "cell line": "THP1-Dual", "test": "IFNB1 luciferase reporter, inhibitor", "conditions": "together with: HT-DNA", "EC50": "> 20 µM"}
{"Compound": "CCOC(=O)C1=C(C)NC2=C(C(=O)OC(c3ccc(OC)c(OC)c3)C2)C1c1ccccc1C (stereo not drawn)", "cell line": "J774.A1", "test": "cytotoxicity", "EC50": "> 20 µM"}
{"Compound": "Cc1nn(-c2nc3c(F)cc(F)cc3s2)c(O)c1C(c1cccc(C(F)(F)F)c1)c1c(C)nn(-c2nc3c(F)cc(F)cc3s2)c1O", "cell line": "THP1-Dual", "test": "IFN reporter gene, inhibitor", "conditions": "together with: HT-DNA", "EC50": "17.9 µM and 14.7 µM and 15 µM"}
{"note": "Some of these lines once more:"}
{"Compound": "O=c1c(O)c(-c2ccc(O)c(O)c2)oc2cc(O)cc(O)c12", "cell line": "HepG2-ARE-Luc", "test": "Nrf2-ARE reporter gene, activator", "EC50": "9.3 µM"}
{"Compound": "COc1cnc2cccc(N3CCc4c(cc(Cn5ccnc5C)cc4-c4cn(C)nc4C(F)(F)F)C3=O)c2c1", "cell line": "HLC1", "test": "cell growth, inhibitor", "conditions": "120 h", "EC50": "6.87 µM"}
